Experimental data gathered from unrelated publications.
Each line is one published result; not all experiments were run side by side. “And” joins repeats or separate records; there may be more than shown.
Organism: Staphylococcus aureus

With `NCCCC[C@@H]1NC(=O)[C@@H](CCCCN)NC(=O)[C@H](CCCCN)NC(=O)[C@@H](CCCCN)NC(=O)[C@H](Cc2c[nH]c3ccccc23)NC(=O)[C@@H](Cc2c[nH]c3ccccc23)NC(=O)[C@H](Cc2c[nH]c3ccccc23)NC(=O)[C@@H](Cc2c[nH]c3ccccc23)NC(=O)[C@@H](N)CSCc2ccc(cc2)CSC[C@@H](C(N)=O)NC(=O)[C@@H](CCCCN)NC1=O` the MIC was 64 µg/mL (Newman MSSA).
`CC[C@H](C)[C@@H]1NC(=O)CNC(=O)[C@H](CCCCN)NC(=O)[C@H](C)NC(=O)[C@H](CCC(=O)O)NC(=O)[C@H](Cc2ccccc2)NC(=O)[C@H](CO)NC(=O)[C@H](CC(C)C)NC(=O)[C@H](C(C)C)NC(=O)[C@H](CC(=O)O)NC(=O)[C@@H](NC(=O)[C@@H](NC(=O)[C@@H](N)C(C)C)[C@@H](C)O)CSSC[C@@H]2NC(=O)[C@H](CO)NC(=O)CNC(=O)CNC(=O)[C@H](CCCCN)NC(=O)[C@H](CCCCN)NC(=O)[C@H](CCCNC(=N)N)NC(=O)[C@H](CC(C)C)NC(=O)[C@H](C)NC(=O)[C@H]([C@@H](C)CC)NC(=O)[C@@H]3CSSC[C@@H](C(=O)N[C@@H](CCCNC(=N)N)C(=O)N[C@@H](CC(N)=O)C(=O)O)NC(=O)[C@H](C(C)C)NC(=O)[C@H](CSSC[C@H](NC(=O)[C@H](C)NC(=O)[C@H](CO)NC(=O)[C@H](Cc4c[nH]cn4)NC(=O)[C@H](CC(N)=O)NC(=O)[C@H](C(C)C)NC(=O)[C@H](C)NC1=O)C(=O)N[C@@H](C)C(=O)N[C@@H](CC(C)C)C(=O)N[C@@H](Cc1c[nH]cn1)C(=O)N3)NC(=O)[C@H](C(C)C)NC(=O)CNC(=O)[C@H](CC(N)=O)NC(=O)[C@H](CCC(N)=O)NC2=O` gave an MIC of 0.8 µM (broth microdilution; KCTC 1621; 16 h, 37 °C).
With `CC(C)C[C@H](NC(=O)[C@H](CC(N)=O)NC(=O)[C@H](CCCNC(=N)N)NC(=O)[C@@H](CC(C)C)NC(=O)[C@H](Cc1ccc(-c2ccccc2)cc1)NC(=O)[C@H](CC(=O)O)NC(=O)[C@H](CCCCN)NC(=O)[C@@H](CC(C)C)NC(=O)[C@H](CCCNC(=N)N)NC(=O)[C@H](CCC(N)=O)NC(=O)[C@@H](NC(=O)[C@@H](CC(C)C)NC(=O)[C@H](CCCNC(=N)N)NC(=O)[C@H](CCCCN)NC(=O)[C@H](Cc1ccc(-c2ccccc2)cc1)NC(=O)CN)C(C)C)C(=O)N[C@H](C(N)=O)C(C)C` the MIC was 4 µM (broth microdilution; USA300, Mueller-Hinton broth; overnight, 37 °C).
`COc1cc(/C=C/C(=O)NCCCCCC(=O)N[C@@H](CCCNC(=N)N)C(=O)N[C@@H](CCCNC(=N)N)C(=O)N[C@@H](Cc2c[nH]c3ccccc23)C(=O)N[C@@H](CCC(N)=O)C(=O)N[C@@H](Cc2c[nH]c3ccccc23)C(=O)N[C@@H](CCCNC(=N)N)C(N)=O)ccc1O` gave an MIC of 39 µM and 37 µM (broth microdilution; ATCC 25923; 24 h, 37 °C).
`Oc1ccccc1C1Nc2ccccc2C2=[O+][Cu-2]3([Cl])[O]c4ccccc4C=[N+]3N21` (centres unmarked) has an MIC of 8 µg/mL (broth microdilution; MRSA clinical isolate SA 3202; 24 h, 37 °C).
`CC[C@H](C)[C@H](N)C1=N[C@H](C(=O)N[C@@H](CC(C)C)C(=O)N[C@H](CCC(=O)O)C(=O)N[C@H](C(=O)N[C@H]2CCCCNC(=O)[C@H](CC(N)=O)NC(=O)[C@@H](CC(=O)O)NC(=O)[C@H](Cc3c[nH]cn3)NC(=O)[C@@H](Cc3ccc(-c4ccccc4)cc3)NC(=O)[C@H]([C@@H](C)CC)NC(=O)[C@@H](CCCN)NC2=O)[C@@H](C)CC)CS1` has an MIC of 0.25 µg/mL (USA300 MRSA; 18 h, 37 °C, added: ZnSO4 0.3 mM).
`CC[C@H](C)[C@H](NC(=O)[C@@H](NC(=O)CN)C(C)C)C(=O)N[C@@H](Cc1ccccc1)C(=O)N[C@@H](CC(N)=O)C(=O)N[C@@H](C)C(=O)N[C@@H](CC(C)C)C(=O)N[C@@H](CCCCN)C(=O)NCC(=O)N[C@H](C(=O)N[C@@H](C)C(=O)N[C@@H](CCCCN)C(=O)N[C@H](C(=O)N[C@H](C(=O)N[C@@H](C)C(=O)N[C@@H](C)C(=O)N[C@@H](CCC(N)=O)C(=O)N[C@@H](CC(C)C)C(=O)N[C@@H](CC(C)C)C(=O)N[C@@H](CCCCN)C(=O)N[C@@H](CCCCN)C(=O)N[C@@H](C)C(=O)N[C@@H](CCCNC(=N)N)C(=O)N[C@H]1CSSC[C@@H](C(=O)O)NC(=O)[C@H](CO)NC(=O)[C@H](CCCCN)NC(=O)[C@H](CC(=O)O)NC(=O)[C@H](CC(C)C)NC(=O)[C@H](CCCCN)NC1=O)C(C)C)[C@@H](C)O)C(C)C` has an MIC of 2 µM (NCTC 10788; added: NH4Cl 6 µM).
`CC(C)C[C@@H]1NC(=O)[C@@H](CC(C)C)NC(=O)[C@H](CCN)NC(=O)[C@@H](NC(=O)Cn2cc(C[C@H](NC(=O)CC[C@@H]3NC(=O)[C@H](CCN)NC(=O)[C@H](Cc4ccc(O)cc4)NC(=O)[C@H]([C@@H](C)O)NC(=O)[C@H](C(C)C)NC(=O)[C@@H]4CCCN4C(=O)[C@@H](C)NC(=O)[C@H](CO)NC(=O)[C@H](C)NC(=O)[C@H](C(C)(C)C)NC(=O)[C@H](CCO)NC(=O)[C@H](Cc4c[nH]c5ccccc45)NC(=O)[C@H](CCO)NC(=O)[C@@H](CCN)NC3=O)C(N)=O)nn2)CCNC(=O)[C@H]([C@@H](C)O)NC(=O)[C@H](CCN)NC(=O)[C@H](CCN)NC1=O` has an MIC of over 64 µg/mL (broth microdilution; MRSA USA300, CAMHB with polysorbate-80; 16 h).
With `O=C(O)c1ccc(-n2cc(/C=N/Nc3cccc(Cl)c3F)c(-c3ccc4ccccc4c3)n2)cc1` the MIC was 0.78 µg/mL (microbial growth; ATCC33592; drug-resistant strain).
`CC(C)C[C@H](NC(=O)CN)C(=O)N[C@@H](CC(C)C)C(=O)N[C@@H](CCCCN)C(=O)N[C@@H](CC(C)C)C(=O)N[C@@H](CC(C)C)C(=O)N[C@@H](CCCCN)C(=O)N[C@@H](CCCCN)C(=O)N[C@@H](CC(C)C)C(=O)N[C@@H](CC(C)C)C(=O)N[C@@H](CCCCN)C(=O)N[C@@H](CC(C)C)C(=O)N[C@@H](CC(C)C)C(=O)N[C@@H](CCCCN)C(N)=O` has an MIC of over 19 µM (ATCC 43300, CAMHB; 18 h, 37 °C).
With `COc1ccc2ccc3c(c2c1)C=[N+]1C2CCCCC2[N+]2=Cc4cc(C(C)(C)C)ccc4[O][Au-]21[O]3.F[P-](F)(F)(F)(F)F` (centres unmarked) the MIC was 10 µM (bacterial growth, broth microdilution; vancomycin-intermediate; 24 h).
For `CN1C(=O)[C@@H]2NC(=O)[C@@H]3NC(=O)[C@@H](c4ccc(O)cc4)NC(=O)[C@H](NC(=O)C(NCc4cc(O)cc(O)c4)c4ccc(O)cc4)Cc4c[nH]c5cc(ccc45)-c4cc3cc(c4O)Oc3ccc(cc3)C[C@H]1C(=O)N[C@@H](C(=O)O)c1ccc(O)c(c1)Oc1ccc2cc1` (some centres unmarked), the MIC was 4 µg/mL (ATCC 33591 MRSA, Mueller-Hinton broth).
`CC(C)C[C@@H]1NC(=O)[C@H](C)NC(=O)[C@@H]2NC(=O)[C@H](CO)NC(=O)[C@@H](CCCCN)NC(=O)[C@H](NC(=O)[C@@H](N)Cc3ccccc3)CCCCCCCC[C@H](NC1=O)C(=O)O[C@H]2C` gave an MIC of 16 µg/mL (MSSA ATCC 29213; TFA salt).
With `CCC[C@@H]1NC(=O)[C@@H]([C@@H](C)O)NC(=O)CNC(=O)[C@H](CC(=O)O)NC(=O)CNC(=O)[C@H](CC(=O)O)NC(=O)CNC(=O)[C@H]2CCCCN2C(=O)[C@@H](NC(=O)[C@H](CC(=O)O)NC(=O)/C=C/CCCCCCCCCC(C)C)CNC(=O)[C@@H]2CCCN2C1=O` the MIC was 16 µg/mL (MRSA USA300; added: Ca2+ 1 mM).
With `CC(=O)OCc1cc(-c2nc3ccccc3n(-c3ccc([N+](=O)[O-])cc3[N+](=O)[O-])c2=O)nn1-c1ccccc1` the MIC was 500 µg/mL (microbial growth; clinical isolate).
For `CC(=NNC(=N)N)c1nnn(-c2ccc(C#CC3(O)CCCCC3)cc2)c1C`, the MIC was at most 4 µg/mL (broth microdilution; MRSA USA300 NRS384).
The MIC of `S=C(NCc1ccccn1)NCc1ccccn1` is reported as 14.8 µg/mL (microbial growth, well diffusion).
For `CCC(CC)c1cc(C2CN3CCC2CC3CNC)nc(-c2ccncc2)n1` (centres unmarked), the MIC was 64 µg/mL (microbial growth, broth dilution; ATCC29213).
`CCCCCCCCCCCCCC[S+]([O-])CC1OC(OC2C(N)CC(N)C(OC3OC(CN)C(O)CC3N)C2O)C(O)C(N)C1O` (mixture of isomers) has an MIC of 18.8 µg/mL (NorA).
With `CN[C@@H]1[C@H](O)[C@H](NC)[C@H]2O[C@]3(O)[C@H](O[C@@H]2[C@H]1O)O[C@H](C)C[C@@]3(O)CNCc1ccc(OC(F)(F)F)cc1` the MIC was 100 to 200 µg/mL (MRSA NRS70).
